Assay results gathered from unrelated publications.
A part holds a random share of what one study measured. Changes are numbered by the printed parent chain.

Set 1
Target: Histone acetyltransferase KAT6A, both winged helices, GST fusion (KAT6A, Homo sapiens, UniProt Q92794, residues 1-181)
Technique: protein binding microarray
Form: double-stranded DNA, one strand shown
Matrix: in vitro
Tested at: not given
Setting: 8-mer, flanks averaged, mean of 2 arrays, mostly near background
Relative to: not given
Reading: higher = stronger binding
Target sequence (chain): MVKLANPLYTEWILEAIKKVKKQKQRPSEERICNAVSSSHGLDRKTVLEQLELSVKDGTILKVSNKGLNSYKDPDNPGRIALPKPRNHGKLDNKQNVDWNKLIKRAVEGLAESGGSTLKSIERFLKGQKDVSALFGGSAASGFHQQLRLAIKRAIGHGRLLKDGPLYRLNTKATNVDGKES
Strand	E-score
ATCAGTTG	-0.178
TAGCAGAA	-0.14
GGTGGACA	-0.0309
ACGAAACG	0.167
CCTTGCCA	-0.132
CACGTGCC	-0.114
AACCCCCC	-0.254
CATTAGCG	0.248
CAAACTAG	-0.143
ATGTTAGA	-0.217
CAAGGGGC	-0.0729
GGAACAAC	0.123
ACCCATTC	-0.237
CATGATAC	-0.073
AGAATTAA	-0.153
ACCATTAA	-0.0829
AGTATTCC	-0.0244
CGCTGCTC	0.115
CAGCAGCC	-0.15
AAACACCG	0.244
CGAAATTA	-0.0492
AACGTAAC	-0.0248
CTTGTAGA	-0.0256

Set 2
Target: CCNB3, cyclin fold, Cln2 fusion (human)
Technique: yeast growth competition, sequencing
Matrix: yeast
Setting: weak parent motif
Relative to: not given
Reading: higher = stronger binding
Starting sequence: E2F1 docking peptide (human); PPVKRRLDLETDH
Change	normalised enrichment score
P1E	0.178
R5N	0.411
P1A	0.693
V3E	0.63
L7V	0.0929
D8C	0.0408
K4I	0.476
D8E	-0.042
R6N	0.0883
V3R	0.118
P2C	0.394
H13S	0.598
K4V	0.522
H13T	0.516

Set 3
Target: RNA binding protein fox-1 homolog 2, RRM domain, GST-SBP tag (RBFOX2, Homo sapiens, UniProt O43251-10, residues 100-194)
Technique: RNA Bind-n-Seq
Form: RNA
Matrix: in vitro
Tested at: 365 nM
Setting: natural RNA segment, single round, ends assumed
Relative to: no-protein control
Reading: higher = stronger binding
Constant ends, left off below: GGGAGUUCUACAGUCCGACGAUC … UGGAAUUCUCGGGUGCCAA
Target sequence (chain): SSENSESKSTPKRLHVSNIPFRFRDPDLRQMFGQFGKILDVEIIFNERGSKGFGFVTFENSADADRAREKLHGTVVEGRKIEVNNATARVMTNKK
Strand	RBNS enrichment (R)
ACUAUGGACUCUUGUUGUGUGGAAUGGAAGGGGACUAGCCAGCUCUCUGCAUGGCACAUGGUCAAGGAAACUGUCCUUGGCUCAGACAGACCUGGGGUGGUGGGCAUCUG	1.61
GAGAGCAAACAAACAGUCAUGGUCUAAAACCCACAUAGCACUUUGCUCUUAGUUACAUGUAAAAUUUUAGAUUUCUAAAACAGGUGGGCAAUCAUUUUGAAUACUGUUCU	0.342
GUCACCAGUGUUUGGUACCCAAGUCGUUCCAGUGGGAACAAUGUCUGUUUGAGUAAACUAAGACUGACAGGGGAAUCGGGGUGCUCACAAGCGAGUCCCUCCAGCUGCUU	0.552
AGUUAAGCACUUCCUUGGUGUGGGUAAAGAAUAAAGGGGAAAGAAACUACUUUAGAGCCUCUUUUUCUCCCAACUCAUAUUUUUGAUAGGAAAAACAGAAAACCCAUCCA	0.405
UGGCAUUGGGAAACCUAUGACGGACUGUUUUUGCUGUAGAAGUAGGGAUUUUACAGAAGUCUCCUUGAAUUUGCCCUGCCUGGGGCAGUUUUGCAGAGGAACCUGCCAGA	0.247
UGACUGGGCUGGUCCCUCUCAUUUGUACAGUCUGAAUGACAGUUCUUCUUAUCAUUCAGACGUCCCUCCAGAUGCCCAGGGUGAGUGUAACAUUUACCCACAACCUGGCU	0.194
UCCCGGCCCUUACCUUUCCUGAUGCCCCUGACAUCAUCAUUCUUGUGGGAGACAGCAGCCUGUAUGUGGUGUGGGGCGUGGAUCGAGUGUAGCUGUGAAAUCCAUAUAUA	0.261
UUUGUAUAUAAUGUCAUUUUUACGGAAACCCUUUCGGCGUGCAUAAGGAAUCACUGUGUACAAACUGGCCAAGUGCUUCUGUAGAUAACGUCAGUGGAGUAAAUAUUCGA	0.432
UAGUUGAGACUUGUAGACAUUUAUUUAUACUGUGUCAUGUUUUAUAAUUUAUACAUAAAAUGUCUGGUUGACUGUACACCUUGUUUUUUUGAAGAAAUUUAUUCGUGAAA	1.61
UGAAGGAGGUGGGUGGAAACGGCUCUUGUUUGAAAGAACUUAGGGAGGACCAUUGGCUUGCCAAGAGUACAGAAAUUCAUUAUGCUGCUAAUUUAACGUGGAAUUCCUUC	0.527
AGAGAAGGCCAAGGGCUGCGGACUUCUUUGAGAGCCAGAAGCCCUUUCUGAAGCCUGCUUUUAUACCGGAUGUUCUAUAAAUUAUAACUUUUAAAGUUGGGCUUUUUAAU	0.531
CACAUUCUUUGCAUCUGUAUUGUACCAGCUUUAUAGCACUGUUUCAUGCCAAAGUUCUGAUGACGUAACCAGUUGACCCUUCACACAGAGUGCCCUUUCCCCCCCUCCCC	1.01

Set 4
Target: ABI1, truncated, D143A, DHFR fusion (Arabidopsis thaliana)
Technique: DHFR PCA, deep sequencing
Matrix: yeast
Setting: methotrexate growth selection, single substitutions
With: (+)-ABA 58 µM
Relative to: wild-type fitted maximum
Reading: higher = stronger binding
Starting sequence: PYL1, truncated, DHFR fusion (Arabidopsis thaliana); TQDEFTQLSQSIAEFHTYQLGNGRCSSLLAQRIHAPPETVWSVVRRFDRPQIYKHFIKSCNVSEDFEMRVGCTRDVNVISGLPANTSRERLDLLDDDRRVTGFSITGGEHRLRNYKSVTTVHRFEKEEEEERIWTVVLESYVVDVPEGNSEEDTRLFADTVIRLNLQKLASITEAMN
Change	relative binding score
V145P	36.7%
C72R	55.9%
S59D	84%
C60L	32.7%
E152P	54.1%
V142I	82.1%
V43G	-15.3%
T17W	40%
S63T	82.7%
L138C	63.1%
S11M	82.2%
V137F	7.21%
I105N	23.2%
A35K	2.31%
K126I	96.2%
E89D	31.9%
I172C	67.2%
T173V	83.9%
I172K	53.2%
R98K	92.1%
I172G	17.9%
N85K	89.8%
T86G	75.1%
R69M	84.2%

For quick reference, copied from above (set 1):
Strand	E-score
ATGTTAGA	-0.217
ACGAAACG	0.167
CATTAGCG	0.248
AGTATTCC	-0.0244
CCTTGCCA	-0.132
GGAACAAC	0.123
